Measured values of several laboratories.
Each numbered part is a random draw from the data of one study; scales do not carry over between parts.

Series 1
Target: RNA binding protein fox-1 homolog 2, RRM domain, GST-SBP tag (RBFOX2, Homo sapiens, UniProt O43251-10, residues 100-194)
Technique: RNA Bind-n-Seq
Molecule type: RNA
Medium: in vitro
Tested at: 365 nM
Notes: natural RNA segment, single round, ends assumed
Baseline: no-protein control
Reading: higher = stronger binding
Target sequence (chain): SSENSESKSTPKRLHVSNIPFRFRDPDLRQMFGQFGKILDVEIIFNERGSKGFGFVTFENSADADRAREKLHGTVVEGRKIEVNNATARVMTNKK
Strand	RBNS enrichment (R)
GGGAGUUCUACAGUCCGACGAUCUUCUGCCAUACUUUUCUCCAUUGGCCCAGGUAGGCUAAUUGGUAGUUGUUCAUUUCAGCCUCUGGAUGGCUGGCUGCCUUAAACACAAUCAAUUUCAAAGCUCCAUUUCAUGGAAUUCUCGGGUGCCAA	0.467
GGGAGUUCUACAGUCCGACGAUCGCCUUGAAAGGGAGCAGAGAGUGGCUGGAGAAUCAAUUCUGACACCGGCUAAAGUUGCAGCUGUUGUAUCUGGUUUCUGUGAGUCCUGCACCAAGUUCAGCCCAAAAUGAUGGAAUUCUCGGGUGCCAA	0.724
GGGAGUUCUACAGUCCGACGAUCUCAUCGUCCUUGUACUGCGCUUCUGUUUACAAACGAUUCACUGAACAGACUUAACUUGAUGAUGGAAAUGAUGAAAAACAGGCCUAAUGUAGGUGUAAAAGUGUAUUCAAUGGAAUUCUCGGGUGCCAA	0.268

Series 2
Target: Sal-like protein 4, full length isoform A (SALL4, Homo sapiens, UniProt Q9UJQ4, residues 1-1053)
Sequence of UniProt Q9UJQ4 (whole entry, looked up): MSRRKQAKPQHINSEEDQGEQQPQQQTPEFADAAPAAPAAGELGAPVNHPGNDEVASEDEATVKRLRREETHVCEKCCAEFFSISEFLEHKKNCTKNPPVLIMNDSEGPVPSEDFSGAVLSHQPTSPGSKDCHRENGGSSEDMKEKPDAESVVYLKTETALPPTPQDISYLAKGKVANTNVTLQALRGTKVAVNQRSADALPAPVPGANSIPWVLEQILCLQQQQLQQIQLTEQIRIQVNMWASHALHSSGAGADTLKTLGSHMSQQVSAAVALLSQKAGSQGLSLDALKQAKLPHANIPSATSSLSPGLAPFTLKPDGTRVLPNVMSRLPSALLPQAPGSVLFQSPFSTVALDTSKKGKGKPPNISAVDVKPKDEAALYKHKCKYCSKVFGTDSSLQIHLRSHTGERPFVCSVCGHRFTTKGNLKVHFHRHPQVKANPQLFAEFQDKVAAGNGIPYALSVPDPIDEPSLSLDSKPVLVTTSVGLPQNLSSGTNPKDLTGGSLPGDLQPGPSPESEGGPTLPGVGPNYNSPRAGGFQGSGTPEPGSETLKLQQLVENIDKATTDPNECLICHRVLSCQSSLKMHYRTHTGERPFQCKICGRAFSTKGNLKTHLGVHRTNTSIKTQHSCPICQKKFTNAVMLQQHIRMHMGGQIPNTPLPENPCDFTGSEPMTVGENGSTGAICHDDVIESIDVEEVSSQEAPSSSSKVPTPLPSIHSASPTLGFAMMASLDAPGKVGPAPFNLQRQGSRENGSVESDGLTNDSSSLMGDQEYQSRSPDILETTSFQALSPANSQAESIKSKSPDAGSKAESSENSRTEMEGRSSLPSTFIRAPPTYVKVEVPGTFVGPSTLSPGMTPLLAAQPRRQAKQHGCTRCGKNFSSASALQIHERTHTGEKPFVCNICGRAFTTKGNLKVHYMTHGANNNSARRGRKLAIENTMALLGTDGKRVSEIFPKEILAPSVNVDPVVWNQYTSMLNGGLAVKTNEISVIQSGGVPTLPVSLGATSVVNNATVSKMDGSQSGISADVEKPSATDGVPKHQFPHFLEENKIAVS
Technique: universal PBM
Molecule type: double-stranded DNA, one strand shown
Medium: in vitro
Tested at: 600 nM
Notes: 8-mer, flanks averaged, mean of replicates
Reading: higher = stronger binding
Strand	E-score
GTGCCCAC	-0.292
AGTAAGCG	-0.114
CTCGCCAC	-0.222
AGCGTGCC	-0.226

Series 3
Target: Histone acetyltransferase KAT6A, winged helix 1, GST fusion (KAT6A, Homo sapiens, UniProt Q92794, residues 1-85)
Technique: protein binding microarray
Molecule type: double-stranded DNA, one strand shown
Medium: in vitro
Tested at: not given
Notes: 8-mer, flanks averaged, mean of 2 arrays, mostly near background
Baseline: not given
Reading: higher = stronger binding
Target sequence (chain): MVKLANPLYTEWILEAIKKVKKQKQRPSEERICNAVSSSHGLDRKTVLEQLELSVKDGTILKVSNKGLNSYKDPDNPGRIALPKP
Strand	E-score
GTGCGGAA	0.125
CTAAGGCA	-0.0576
GTAAGTTA	-0.0717
ACATACGT	-0.0127
CCAGACTA	-0.227

Other studies, line by line
Molecule	target	test	test system	setting	scale	quantity	result
PhoQ, residues 284 288 289 292 302 303 SNSSNI	PhoP, residues 12 14 15 18 19 LWHVM (Escherichia coli, UniProt P23836)	Sort-seq, refers to: YFP reporter	E. coli	PhoQ-PhoP variant library, added: 10 µM Mg2+	baseline: high Mg2+ state, higher = stronger signaling	fold induction	5.18

For quick reference, copied from above (series 2):
Strand	E-score
CTCGCCAC	-0.222
